Measured values from different studies.
Numbered parts are unrelated; each lists some results of a single study.

Sample 1
Target: Max-binding protein MNT, bHLH-zipper, MAX partner unstated (MNT, Homo sapiens, UniProt Q99583, residues 220-300)
Technique: protein-binding microarray
Molecule type: double-stranded DNA, one strand shown
Matrix: in vitro
Concentration: not given
Notes: k-mer, scored over probes, only values ≥0.25
Direction: higher = stronger binding
Residues (chain): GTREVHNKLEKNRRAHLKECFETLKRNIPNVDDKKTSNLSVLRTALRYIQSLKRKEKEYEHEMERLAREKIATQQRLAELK
Strand	E-score
AGTGCGTG	0.273
ACGAGGAA	0.333
GGTAGCAC	0.272
AGCGTGAG	0.274
CACGTGTC	0.496
CGCGCGGC	0.262
CCTCCCCG	0.285
CCGCCCCG	0.355
CACGTCCA	0.267

Sample 2
Target: Histone acetyltransferase KAT6A, winged helix 1, GST fusion (KAT6A, Homo sapiens, UniProt Q92794, residues 1-85)
Technique: protein binding microarray
Molecule type: double-stranded DNA, one strand shown
Matrix: in vitro
Concentration: not given
Notes: 8-mer, flanks averaged, mean of 2 arrays, mostly near background
Relative to: not given
Direction: higher = stronger binding
Target sequence (chain): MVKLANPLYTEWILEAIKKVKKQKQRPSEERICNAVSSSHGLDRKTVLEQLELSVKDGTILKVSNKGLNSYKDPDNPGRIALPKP
Strand	E-score
CCTCTCAC	-0.234
AGTGGCAG	-0.124
AACGACAA	-0.0387
CCTAGTGA	-0.157
GAATTGTA	-0.192
ATAATTAG	-0.0466
AGAGCGTA	0.271
CCACTATA	-0.251
ACTTAGTG	-0.248
CTAATCTC	-0.144
AAGGCGCT	0.28

Sample 3
Target: Ras GTPase-activating protein-binding protein 1, full length (G3BP1, Homo sapiens, UniProt Q13283)
Sequence of UniProt Q13283 (whole entry, looked up): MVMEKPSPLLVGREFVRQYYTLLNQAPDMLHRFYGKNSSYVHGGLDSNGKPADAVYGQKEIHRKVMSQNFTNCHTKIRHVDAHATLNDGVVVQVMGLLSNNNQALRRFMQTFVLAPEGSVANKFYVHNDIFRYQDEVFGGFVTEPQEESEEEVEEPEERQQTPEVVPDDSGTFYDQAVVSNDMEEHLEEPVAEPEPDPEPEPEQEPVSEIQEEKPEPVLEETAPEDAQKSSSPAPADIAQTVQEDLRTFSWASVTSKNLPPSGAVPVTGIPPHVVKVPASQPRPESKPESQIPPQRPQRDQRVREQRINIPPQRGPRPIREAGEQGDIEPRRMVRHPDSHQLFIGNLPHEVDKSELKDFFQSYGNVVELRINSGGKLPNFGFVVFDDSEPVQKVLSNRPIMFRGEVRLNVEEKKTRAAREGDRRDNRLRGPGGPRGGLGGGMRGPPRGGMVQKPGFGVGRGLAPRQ
Technique: RNA Bind-n-Seq
Molecule type: RNA
Matrix: in vitro
Concentration: 200 nM
Notes: whole 134-nt RNA, ends assumed
Together with: 150 mM KCl
Relative to: input library
Direction: higher = stronger binding
Shared flanks, not repeated: GGGAGUUCUACAGUCCGACGAUC … UGGAAUUCUCGGGUGUCAAGG
Strand	log2 enrichment
AGUCCUGUGCUACACAUCGUAUGUACCGAAUCGGGUUUUUUUGGGUGGGUUUUUGGGAAAGUAUUAUGUUACGCCGUUCGGAUCUGCACU	-0.0105
UAACUUUAGAGGAGGAUCUGAUGGAUAUGGCAGUGGACGUGGAUUUGGGGAGGGCUAUAAUGGGUAUGGAGGAGGACCUGGAGGUGGCAA	0.92
UAACUUUAGAGGAGGAUCUGAUGGAUAUGGCAGUGGACGUGGAUUUGGGGAUGGCUAUAAUGGGUAUGGAGGAGGACCUGGAGGAGGCAA	0.212
UAACUUUAGAGGAGGAUCUGAUGGAUAUGGCAGAGGACGUGGAUUUGGGGAUGGCUAUAAUGGGUAUGGAGGAGGACCUGGAGGUGGCAA	0.426
UCCUGUGCUACACAUCGUAUGUACCGAAUCGGGGAAAAAGGGGAAAAAGGGGUUUGGGGAAAGUAUUAUGUUACGCCGUUCGGAUCUGCA	0.773
AGUCCUGUGCUACACAUCGUAUGUACCGAAUCGGGUUUGGGAAAGGGAAAAAAAGGGAAAGUAUUAUGUUACGCCGUUCGGAUCUGCACU	-0.11
UGGGAGGUGGAUUAUGUUUAUUUUUUUAGCUCAUUUCCAGGGGUGGGAAUUUUUUUUUAAUAUGUGUCAUGAAUAAAGUUGUUUUUGAAA	-0.0304
UCAAGUCCUGUGCUACACAUCGUAUGUACCGAAUCGGAGGUUUUUGGUUUUUGGAAAGUAUUAUGUUACGCCGUUCGGAUCUGCACUUCC	-1.08
CCUCAAGUCCUGUGCUACACAUCGUAUGUACCGAAUCGGGGAGGGGAGGAGGAAAGUAUUAUGUUACGCCGUUCGGAUCUGCACUUCCAG	0.615
GCAGGAAGUAAAAACAAAUGGAAAUGCUUCGGAUAGUGGCAGGGGUGGGGGUGGCUAAGGAAAGGGUGGGAUGGGAGUGGGUAAAGAGUU	0.719

Mixed results
Molecule	target	test	system	conditions	scale	measurement	result
PhoQ, residues 284 288 289 292 302 303 TNASYF	PhoP, residues 12 14 15 18 19 QWHVF (Escherichia coli, UniProt P23836)	Sort-seq, measured: YFP reporter	E. coli	PhoQ-PhoP variant library, together with: 10 µM Mg2+	relative to: high Mg2+ state, higher = stronger signaling	fold induction	9.53

A few entries again (sample 3):
Strand	log2 enrichment
AGUCCUGUGCUACACAUCGUAUGUACCGAAUCGGGUUUUUUUGGGUGGGUUUUUGGGAAAGUAUUAUGUUACGCCGUUCGGAUCUGCACU	-0.0105
GCAGGAAGUAAAAACAAAUGGAAAUGCUUCGGAUAGUGGCAGGGGUGGGGGUGGCUAAGGAAAGGGUGGGAUGGGAGUGGGUAAAGAGUU	0.719
UGGGAGGUGGAUUAUGUUUAUUUUUUUAGCUCAUUUCCAGGGGUGGGAAUUUUUUUUUAAUAUGUGUCAUGAAUAAAGUUGUUUUUGAAA	-0.0304
